# Results collected from several papers.
# TDP1: Tyrosyl-DNA phosphodiesterase 1 (TDP1, Homo sapiens, UniProt Q9NUW8)
# Sequence of UniProt Q9NUW8 (whole entry, looked up): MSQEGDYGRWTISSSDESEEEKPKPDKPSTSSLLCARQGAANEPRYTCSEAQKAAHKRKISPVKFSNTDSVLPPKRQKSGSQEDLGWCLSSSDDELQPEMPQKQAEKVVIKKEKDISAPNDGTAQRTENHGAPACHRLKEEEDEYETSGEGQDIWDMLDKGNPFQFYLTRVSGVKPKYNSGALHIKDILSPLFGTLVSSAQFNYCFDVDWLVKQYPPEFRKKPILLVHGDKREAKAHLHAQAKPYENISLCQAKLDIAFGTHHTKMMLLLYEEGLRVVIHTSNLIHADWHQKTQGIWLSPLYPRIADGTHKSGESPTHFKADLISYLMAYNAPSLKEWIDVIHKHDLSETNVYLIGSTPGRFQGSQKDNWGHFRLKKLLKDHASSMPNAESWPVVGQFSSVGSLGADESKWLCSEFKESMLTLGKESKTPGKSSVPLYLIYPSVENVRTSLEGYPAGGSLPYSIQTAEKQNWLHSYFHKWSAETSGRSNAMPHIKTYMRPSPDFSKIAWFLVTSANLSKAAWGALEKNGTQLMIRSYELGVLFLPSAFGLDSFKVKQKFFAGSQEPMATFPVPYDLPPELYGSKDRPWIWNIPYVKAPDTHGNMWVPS
# Sequence of UniProt Q9UKP6 (whole entry, looked up): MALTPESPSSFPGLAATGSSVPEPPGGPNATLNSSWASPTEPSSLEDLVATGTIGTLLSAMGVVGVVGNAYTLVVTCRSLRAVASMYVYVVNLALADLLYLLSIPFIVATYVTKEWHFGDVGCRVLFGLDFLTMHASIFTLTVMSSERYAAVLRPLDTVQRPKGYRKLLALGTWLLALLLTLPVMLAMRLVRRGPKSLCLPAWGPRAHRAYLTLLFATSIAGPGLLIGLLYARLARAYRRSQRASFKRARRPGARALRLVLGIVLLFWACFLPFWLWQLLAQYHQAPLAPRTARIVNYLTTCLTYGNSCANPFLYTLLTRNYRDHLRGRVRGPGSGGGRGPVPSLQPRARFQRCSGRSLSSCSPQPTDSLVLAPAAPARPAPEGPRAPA
# Sequence of UniProt P0A7A9 (whole entry, looked up): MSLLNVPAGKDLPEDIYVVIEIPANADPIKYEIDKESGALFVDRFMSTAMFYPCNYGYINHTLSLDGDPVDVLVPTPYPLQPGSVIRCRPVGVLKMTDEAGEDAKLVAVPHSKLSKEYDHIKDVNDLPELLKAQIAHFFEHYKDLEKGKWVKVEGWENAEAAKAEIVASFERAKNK
# Sequence of UniProt P08912 (whole entry, looked up): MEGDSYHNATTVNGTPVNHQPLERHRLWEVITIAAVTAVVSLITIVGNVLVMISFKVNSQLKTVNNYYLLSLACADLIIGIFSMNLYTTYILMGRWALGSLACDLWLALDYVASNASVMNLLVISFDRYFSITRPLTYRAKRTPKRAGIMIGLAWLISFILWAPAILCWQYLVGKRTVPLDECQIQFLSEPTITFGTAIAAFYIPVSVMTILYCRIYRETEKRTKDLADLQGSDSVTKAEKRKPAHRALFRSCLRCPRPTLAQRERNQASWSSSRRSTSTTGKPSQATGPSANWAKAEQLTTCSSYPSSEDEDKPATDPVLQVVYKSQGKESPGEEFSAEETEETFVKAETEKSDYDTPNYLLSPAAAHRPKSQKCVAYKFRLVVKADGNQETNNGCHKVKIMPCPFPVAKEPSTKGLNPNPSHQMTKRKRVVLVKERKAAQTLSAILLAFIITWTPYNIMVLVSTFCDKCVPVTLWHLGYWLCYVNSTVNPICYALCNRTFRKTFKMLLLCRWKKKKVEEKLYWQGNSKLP
# Sequence of UniProt P42337 (whole entry, looked up): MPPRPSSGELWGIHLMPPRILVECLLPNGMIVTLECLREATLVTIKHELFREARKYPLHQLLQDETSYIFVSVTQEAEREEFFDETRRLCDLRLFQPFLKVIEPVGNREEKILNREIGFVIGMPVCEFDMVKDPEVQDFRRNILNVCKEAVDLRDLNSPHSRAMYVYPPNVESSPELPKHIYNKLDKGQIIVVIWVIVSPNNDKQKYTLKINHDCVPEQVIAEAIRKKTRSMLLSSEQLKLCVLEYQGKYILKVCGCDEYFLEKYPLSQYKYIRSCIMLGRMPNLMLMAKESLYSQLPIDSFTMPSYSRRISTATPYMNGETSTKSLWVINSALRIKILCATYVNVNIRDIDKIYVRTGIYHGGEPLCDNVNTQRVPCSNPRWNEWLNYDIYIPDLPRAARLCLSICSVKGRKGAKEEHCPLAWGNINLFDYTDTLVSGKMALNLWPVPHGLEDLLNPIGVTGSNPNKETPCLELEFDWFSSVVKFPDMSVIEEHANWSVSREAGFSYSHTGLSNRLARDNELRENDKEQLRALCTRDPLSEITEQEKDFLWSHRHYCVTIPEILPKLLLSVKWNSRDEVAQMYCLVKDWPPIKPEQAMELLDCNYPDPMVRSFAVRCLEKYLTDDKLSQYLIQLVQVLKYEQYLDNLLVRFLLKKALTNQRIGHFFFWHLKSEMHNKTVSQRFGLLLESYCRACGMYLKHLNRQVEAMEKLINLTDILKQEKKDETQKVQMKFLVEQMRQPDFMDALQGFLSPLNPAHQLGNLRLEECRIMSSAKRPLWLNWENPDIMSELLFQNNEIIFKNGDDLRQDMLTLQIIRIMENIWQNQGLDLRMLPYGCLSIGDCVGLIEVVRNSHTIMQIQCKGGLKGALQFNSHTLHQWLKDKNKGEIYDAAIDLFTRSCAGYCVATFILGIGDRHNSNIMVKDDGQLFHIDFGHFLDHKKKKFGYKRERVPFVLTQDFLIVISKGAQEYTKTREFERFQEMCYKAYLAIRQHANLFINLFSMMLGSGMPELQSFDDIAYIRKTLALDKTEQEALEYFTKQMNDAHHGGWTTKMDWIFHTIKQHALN
Structure (SMILES),target or system,assay,test system,conditions,how to read,quantity,result
C=CC(=O)Nc1cccc(Cn2ncc3cnc(Nc4cnn(CCOC)c4)nc32)c1,ANKK1 human,"binding, KINOMEscan",,100 nM,lower = stronger binding,percent of control,100%
CNS(=O)(=O)Nc1nccc(Cc2c(C)c3ccc(Oc4ncccc4F)cc3oc2=O)c1F,Capan-2,cell viability,,7 days,,IC50,3.07 nM
Cc1nc2c(F)cc(-c3nc(Nc4ccc(CNC(=O)CCCCCCC(=O)NO)cc4)ncc3F)cc2n1C(C)C,"Phosphatidylinositol 4,5-bisphosphate 3-kinase catalytic subunit alpha isoform, with p65 alpha (Pik3ca, Mus musculus, UniProt P42337)",enzyme activity,,"1 µM, p110α/p65α)(m mouse",,inhibition,27%
N#CSc1sc(N)nc1-c1ccccc1,"ppa (Escherichia coli, UniProt P0A7A9)","inhibitor, counter-screen, coupling enzyme alone",,30 µM,,inhibition,60.1%
CN(C)C=C(C=NOCc1ccc(-c2nc3cc(-c4ccccc4)ccn3c2Nc2ccc(C(=O)O)cc2)cc1)c1ncc(C(F)(F)F)cc1Cl,TDP1,"enzyme activity, inhibitor",,"100 µM, unpurified compound",,inhibition,87.4%
O=C1c2sc(-c3ccc(N4CCC(CO)CC4)nc3F)nc2CCN1c1cccnc1,"L-type Ca2+ channel, phenylalkylamine (verapamil) site","radioligand binding, BioPrint binding panel",,"1 µM, with: antagonist radioligand",,inhibition,-12%
Brc1ccccc1-c1nnc(CSc2nnnn2-c2ccccc2)o1,"CHRM5 (Homo sapiens, UniProt P08912)","ligand displacement, radioligand",,10 µM,,inhibition,-6%
COC1CN([C@H]2CC[C@H]([C@@]3(C)Oc4c(Cl)cc(C(=O)NCc5c(SC)cc(C)[nH]c5=O)c(C)c4O3)CC2)C1,,"RNA-seq, item: RAB20 mouse homolog","mouse, HT-1376 xenograft, whole blood",dose not given,reference: vehicle,log2 fold change,0.00431
O=C1c2sc(-c3ccc(N4CCC(F)C4)nc3F)nc2CCN1c1cccnc1 (stereo not drawn),"UTS2R (Homo sapiens, UniProt Q9UKP6)","ligand displacement, radioligand",,1 µM,,inhibition,1%
Nc1ncc(-c2cc(-c3cnn(CC(F)(F)F)c3)ncc2F)nc1C(=O)NC1CNCC(F)C1 (stereo not drawn),MAP4K3,KINOMEscan,,1 µM,reference: DMSO control,remaining binding,58%
O=C(O)c1ccc(Nc2c(-c3ccc(CON=Cc4cccc(N5CCCCC5)n4)cc3)nc3cc(-c4ccccc4)ccn23)cc1,TDP1,"enzyme activity, inhibitor",,"100 µM, unpurified compound",,inhibition,31.2%
C[N+]1(Cc2ccccc2)CCN(CCCN2c3ccccc3Sc3ccc(Cl)cc32)CC1,"Uncharacterized protein (Trypanosoma brucei brucei, UniProt Q386Q8)","enzyme activity, inhibitor, coupled colorimetric",,"30 µM, with: E. coli pyrophosphatase coupling",,inhibition,25.8%
Cc1ncsc1-c1ccc(C(C)NC(=O)C2CC(O)CN2C(=O)C(NC(=O)CCCCCCCCCCN2CCCC(Nc3ncc(Cl)c(Nc4ccccc4S(=O)(=O)C(C)C)n3)C2)C(C)(C)C)cc1 (stereo not drawn),22Rv1,"RNA-seq, item: RNF41 mRNA",,concentration not given,reference: DMSO,log2 fold change,-1.36
Cc1ccc(-c2nn(-c3ccccc3)cc2C=NOCc2ccc(-c3nc4cc(-c5ccccc5)ccn4c3Nc3ccc(C(=O)O)cc3)cc2)o1,TDP1,"enzyme activity, inhibitor",,"100 µM, unpurified compound",,inhibition,78.3%
CN(Cc1ccc(/C=C/C(=O)NO)cc1)CC12CC3CC(CC(C3)C1)C2,human 5-HT2B receptor,agonist radioligand binding,,0.05 µM,,inhibition,-11%

# For quick reference, copied from above:
Structure (SMILES),target or system,assay,test system,conditions,how to read,quantity,result
CNS(=O)(=O)Nc1nccc(Cc2c(C)c3ccc(Oc4ncccc4F)cc3oc2=O)c1F,Capan-2,cell viability,,7 days,,IC50,3.07 nM
C=CC(=O)Nc1cccc(Cn2ncc3cnc(Nc4cnn(CCOC)c4)nc32)c1,ANKK1 human,"binding, KINOMEscan",,100 nM,lower = stronger binding,percent of control,100%
